# Experimental data of several laboratories.
# Numbered parts are unrelated; each lists some results of a single study. “And” joins repeats or separate records; there may be more than shown.
# UniProt Q99640, sequence (whole entry, looked up): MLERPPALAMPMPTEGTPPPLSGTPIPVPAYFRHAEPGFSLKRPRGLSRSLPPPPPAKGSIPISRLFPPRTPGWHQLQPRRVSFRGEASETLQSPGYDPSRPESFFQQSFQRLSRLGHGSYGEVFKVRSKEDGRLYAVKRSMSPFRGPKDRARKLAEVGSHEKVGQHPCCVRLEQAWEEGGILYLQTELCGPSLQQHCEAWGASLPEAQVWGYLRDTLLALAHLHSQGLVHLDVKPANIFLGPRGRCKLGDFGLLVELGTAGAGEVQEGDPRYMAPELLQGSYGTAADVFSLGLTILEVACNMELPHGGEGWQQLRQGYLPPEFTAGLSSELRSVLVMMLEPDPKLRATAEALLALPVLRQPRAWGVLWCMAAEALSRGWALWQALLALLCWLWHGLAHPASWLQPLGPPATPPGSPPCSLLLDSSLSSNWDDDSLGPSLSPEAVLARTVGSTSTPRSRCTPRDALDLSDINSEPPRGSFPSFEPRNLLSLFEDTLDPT
# UniProt P51817, sequence (whole entry, looked up): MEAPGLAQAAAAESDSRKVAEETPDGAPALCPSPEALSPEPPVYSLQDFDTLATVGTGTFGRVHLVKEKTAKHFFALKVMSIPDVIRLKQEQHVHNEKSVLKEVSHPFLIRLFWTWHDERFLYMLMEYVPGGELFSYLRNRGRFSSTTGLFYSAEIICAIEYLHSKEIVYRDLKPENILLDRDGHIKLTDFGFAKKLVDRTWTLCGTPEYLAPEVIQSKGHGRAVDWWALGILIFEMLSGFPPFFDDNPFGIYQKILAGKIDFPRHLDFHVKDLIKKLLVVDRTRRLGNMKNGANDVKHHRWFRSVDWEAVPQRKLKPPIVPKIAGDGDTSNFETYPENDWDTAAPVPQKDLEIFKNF
# UniProt P15735, sequence (whole entry, looked up): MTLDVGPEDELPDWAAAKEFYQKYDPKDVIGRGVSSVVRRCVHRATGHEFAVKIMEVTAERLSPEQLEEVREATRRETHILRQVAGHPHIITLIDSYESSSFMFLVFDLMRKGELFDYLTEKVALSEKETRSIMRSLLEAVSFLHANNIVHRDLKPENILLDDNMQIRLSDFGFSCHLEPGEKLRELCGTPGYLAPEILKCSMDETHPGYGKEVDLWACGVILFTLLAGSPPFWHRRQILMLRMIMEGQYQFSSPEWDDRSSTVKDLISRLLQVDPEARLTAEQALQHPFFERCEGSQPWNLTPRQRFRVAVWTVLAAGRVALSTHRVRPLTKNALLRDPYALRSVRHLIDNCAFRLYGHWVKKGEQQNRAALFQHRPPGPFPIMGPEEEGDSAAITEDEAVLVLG
# UniProt P35626, sequence (whole entry, looked up): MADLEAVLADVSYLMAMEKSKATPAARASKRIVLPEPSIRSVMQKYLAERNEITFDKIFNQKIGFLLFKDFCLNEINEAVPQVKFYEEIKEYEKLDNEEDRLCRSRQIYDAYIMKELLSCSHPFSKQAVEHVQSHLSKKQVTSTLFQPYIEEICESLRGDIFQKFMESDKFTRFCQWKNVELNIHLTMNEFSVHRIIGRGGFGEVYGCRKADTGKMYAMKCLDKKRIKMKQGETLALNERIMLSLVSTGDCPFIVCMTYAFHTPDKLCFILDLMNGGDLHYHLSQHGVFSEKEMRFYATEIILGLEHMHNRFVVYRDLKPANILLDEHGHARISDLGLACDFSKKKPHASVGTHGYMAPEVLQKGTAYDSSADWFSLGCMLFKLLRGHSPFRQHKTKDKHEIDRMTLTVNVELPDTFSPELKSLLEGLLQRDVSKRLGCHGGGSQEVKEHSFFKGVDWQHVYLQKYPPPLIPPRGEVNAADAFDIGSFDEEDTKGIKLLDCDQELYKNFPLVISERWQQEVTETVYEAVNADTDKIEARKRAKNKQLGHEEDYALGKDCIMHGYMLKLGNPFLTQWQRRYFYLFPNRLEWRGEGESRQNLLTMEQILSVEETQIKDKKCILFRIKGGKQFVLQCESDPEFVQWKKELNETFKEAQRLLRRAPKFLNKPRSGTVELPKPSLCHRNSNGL
# UniProt Q9BX84, sequence (whole entry, looked up): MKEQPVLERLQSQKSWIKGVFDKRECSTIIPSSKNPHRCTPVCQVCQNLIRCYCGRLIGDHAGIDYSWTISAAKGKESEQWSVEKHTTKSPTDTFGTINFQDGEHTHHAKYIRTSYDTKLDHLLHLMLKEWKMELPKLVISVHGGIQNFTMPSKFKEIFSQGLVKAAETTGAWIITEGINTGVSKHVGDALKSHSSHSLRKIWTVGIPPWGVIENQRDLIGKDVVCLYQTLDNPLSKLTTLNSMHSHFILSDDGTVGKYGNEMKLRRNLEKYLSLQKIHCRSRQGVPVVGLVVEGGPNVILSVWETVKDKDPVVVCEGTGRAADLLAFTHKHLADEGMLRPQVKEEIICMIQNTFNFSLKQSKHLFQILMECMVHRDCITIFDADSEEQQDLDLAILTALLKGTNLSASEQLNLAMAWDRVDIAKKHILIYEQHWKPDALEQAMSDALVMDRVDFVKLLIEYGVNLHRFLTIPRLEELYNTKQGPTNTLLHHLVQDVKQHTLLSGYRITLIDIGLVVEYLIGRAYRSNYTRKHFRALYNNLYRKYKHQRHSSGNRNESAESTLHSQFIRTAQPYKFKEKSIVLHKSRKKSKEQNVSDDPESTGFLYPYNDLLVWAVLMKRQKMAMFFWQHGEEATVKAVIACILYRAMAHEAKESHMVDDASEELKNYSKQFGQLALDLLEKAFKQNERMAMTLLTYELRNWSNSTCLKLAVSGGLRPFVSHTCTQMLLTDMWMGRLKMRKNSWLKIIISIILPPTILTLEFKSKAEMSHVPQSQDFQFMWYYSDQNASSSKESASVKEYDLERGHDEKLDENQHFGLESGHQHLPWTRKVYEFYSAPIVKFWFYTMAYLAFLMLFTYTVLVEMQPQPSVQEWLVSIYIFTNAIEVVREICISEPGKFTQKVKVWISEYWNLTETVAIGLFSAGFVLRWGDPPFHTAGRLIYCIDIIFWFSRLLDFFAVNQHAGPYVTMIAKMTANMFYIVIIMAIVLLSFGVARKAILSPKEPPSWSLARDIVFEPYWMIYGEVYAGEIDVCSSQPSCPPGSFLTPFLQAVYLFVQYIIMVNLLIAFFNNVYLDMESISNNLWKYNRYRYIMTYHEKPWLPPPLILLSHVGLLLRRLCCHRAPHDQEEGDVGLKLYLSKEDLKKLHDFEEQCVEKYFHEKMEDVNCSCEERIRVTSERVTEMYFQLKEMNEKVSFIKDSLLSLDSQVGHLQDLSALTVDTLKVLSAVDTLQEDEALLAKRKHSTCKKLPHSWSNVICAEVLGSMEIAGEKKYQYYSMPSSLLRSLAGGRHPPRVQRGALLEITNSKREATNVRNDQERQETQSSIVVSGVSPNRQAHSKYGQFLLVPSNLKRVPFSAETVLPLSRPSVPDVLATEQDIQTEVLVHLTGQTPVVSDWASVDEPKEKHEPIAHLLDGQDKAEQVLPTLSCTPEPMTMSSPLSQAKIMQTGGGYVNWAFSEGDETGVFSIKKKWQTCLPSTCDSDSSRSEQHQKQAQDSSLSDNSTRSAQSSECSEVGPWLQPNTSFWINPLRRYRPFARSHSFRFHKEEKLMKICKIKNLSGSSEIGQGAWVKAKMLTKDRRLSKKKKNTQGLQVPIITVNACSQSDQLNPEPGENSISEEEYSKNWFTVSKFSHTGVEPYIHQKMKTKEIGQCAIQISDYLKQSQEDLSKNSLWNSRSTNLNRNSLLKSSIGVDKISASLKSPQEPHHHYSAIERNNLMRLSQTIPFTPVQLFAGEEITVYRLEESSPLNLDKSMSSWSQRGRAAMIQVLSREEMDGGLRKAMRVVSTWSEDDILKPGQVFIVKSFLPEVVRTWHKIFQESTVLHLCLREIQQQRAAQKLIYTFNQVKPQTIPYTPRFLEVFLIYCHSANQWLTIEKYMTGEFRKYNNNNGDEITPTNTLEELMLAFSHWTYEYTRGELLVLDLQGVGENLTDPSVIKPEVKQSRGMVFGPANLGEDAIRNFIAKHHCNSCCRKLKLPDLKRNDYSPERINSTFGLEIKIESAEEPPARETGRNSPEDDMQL
# UniProt P49841, sequence (whole entry, looked up): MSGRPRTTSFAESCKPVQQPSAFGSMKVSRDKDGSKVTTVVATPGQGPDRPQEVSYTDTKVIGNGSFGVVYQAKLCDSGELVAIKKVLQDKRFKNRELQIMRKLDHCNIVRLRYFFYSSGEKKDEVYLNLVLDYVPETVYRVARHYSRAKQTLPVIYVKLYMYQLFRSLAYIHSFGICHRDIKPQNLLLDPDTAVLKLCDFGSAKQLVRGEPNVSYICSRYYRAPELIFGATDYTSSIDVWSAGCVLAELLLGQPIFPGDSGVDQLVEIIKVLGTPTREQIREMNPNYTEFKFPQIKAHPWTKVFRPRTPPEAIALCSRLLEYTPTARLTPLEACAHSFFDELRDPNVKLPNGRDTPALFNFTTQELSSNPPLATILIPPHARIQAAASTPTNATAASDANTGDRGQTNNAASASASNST
# UniProt P53671, sequence (whole entry, looked up): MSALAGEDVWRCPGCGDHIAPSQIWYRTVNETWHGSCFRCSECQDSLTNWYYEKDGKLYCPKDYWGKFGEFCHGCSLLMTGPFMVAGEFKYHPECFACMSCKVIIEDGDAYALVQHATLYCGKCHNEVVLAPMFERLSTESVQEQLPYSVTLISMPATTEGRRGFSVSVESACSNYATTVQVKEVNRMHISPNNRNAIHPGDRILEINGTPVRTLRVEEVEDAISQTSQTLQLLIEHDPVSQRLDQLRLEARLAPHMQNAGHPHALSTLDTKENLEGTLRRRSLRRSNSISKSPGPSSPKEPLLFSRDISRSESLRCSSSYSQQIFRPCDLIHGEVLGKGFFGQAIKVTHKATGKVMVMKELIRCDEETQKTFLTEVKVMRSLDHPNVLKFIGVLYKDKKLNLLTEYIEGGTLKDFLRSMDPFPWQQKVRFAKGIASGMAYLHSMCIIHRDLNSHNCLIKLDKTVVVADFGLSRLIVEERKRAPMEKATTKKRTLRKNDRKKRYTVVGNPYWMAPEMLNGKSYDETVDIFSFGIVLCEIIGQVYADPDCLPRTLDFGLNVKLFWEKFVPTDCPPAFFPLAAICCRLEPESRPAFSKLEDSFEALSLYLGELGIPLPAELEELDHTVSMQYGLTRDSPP

# Set 1
# Organism: Sarcocystis neurona
# Read-out: parasite growth
# Concentration: 10 µM
SMILES,inhibition
C[C@H]1C[C@H]2[C@@H]3CCC4=CC(=O)C=C[C@]4(C)[C@@]3(F)[C@@H](O)C[C@]2(C)[C@@]1(O)C(=O)CO,-37.4%
O=C(c1ccc(F)cc1)C1CCN(CCn2c(=S)[nH]c3ccccc3c2=O)CC1,81.9%
COc1cc2c(cc1OC)C(=O)C(CC1CCN(Cc3ccccc3)CC1)C2 (stereo not drawn),-31.3%
Cl.O=C1[C@H]2CCCC[C@H]2C(=O)N1CCCCN1CCN(c2nsc3ccccc23)CC1,73.9%

# Set 2
# Target: RING finger protein unkempt homolog, zinc fingers 1-6, GST-SBP tag (UNK, Homo sapiens, UniProt Q9C0B0, residues 30-357)
# Technique: RNA Bind-n-Seq
# Form: RNA
# Sample: in vitro
# Concentration: not given
# Setting: RNA with constant flanks, human and mouse sites, ends assumed
# Relative to: input RNA pool
# Reading: higher = stronger binding
# Construct (chain): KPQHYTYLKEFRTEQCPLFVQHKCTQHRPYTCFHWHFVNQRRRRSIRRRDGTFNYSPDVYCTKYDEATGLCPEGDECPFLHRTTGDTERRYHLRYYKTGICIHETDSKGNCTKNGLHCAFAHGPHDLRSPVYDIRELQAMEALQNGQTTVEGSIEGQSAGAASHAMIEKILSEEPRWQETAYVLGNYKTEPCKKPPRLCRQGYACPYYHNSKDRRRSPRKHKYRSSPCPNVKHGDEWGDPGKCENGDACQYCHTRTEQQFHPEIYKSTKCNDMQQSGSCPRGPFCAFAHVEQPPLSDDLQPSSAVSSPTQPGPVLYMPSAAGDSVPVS
Sequence,bound/input enrichment
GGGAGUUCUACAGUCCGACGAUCUUGGUGCGGAACCUGUCUGAGGAAGGUCUCUUGCGAUUGUAUCGGACCACUGUCAUUCAAGAUGGCAUCAAGAAGAAGGUGGAUCUGGUGGUGCACCCGUCCAUGGACCAGAACGACCCUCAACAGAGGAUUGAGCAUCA,0.0774 ratio
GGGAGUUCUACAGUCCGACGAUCAGAAAAAUCAAACACUCCUUUAUAAUCUUUUUGACAUUUCUCAAUCUGCACAGACACCAGUAGCAGUUAUUGGACUUACAUGUAGAUUGGAUAUUUUGGAACUCUUAGAAAAGAGAGUGACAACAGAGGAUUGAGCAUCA,0.384 ratio
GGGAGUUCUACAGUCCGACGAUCUCCUUGGAACCCAGUCAUAUAGGUGACCUGCAGAAAGCAGACACCAGUAGUCAAGGUGCUUUAGUGUUUCUCUCAAAGGACUACGAGAUAGAAAGUCAAAAUCCUCUGGCCUCUCCUACGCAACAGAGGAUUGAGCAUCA,1.54 ratio
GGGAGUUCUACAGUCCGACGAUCGUUCCUGAAGCCGGGUUUCAGGCAACUGGGAUGGCGAGUCCGCGAGUGUUCCCACUUUCCUGUGUGGUGCAGCAGUAUGCCUGGGGGAAGGUGGGCUCCAAAAGUGAAGUGGCAUGCCUGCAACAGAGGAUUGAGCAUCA,0.139 ratio
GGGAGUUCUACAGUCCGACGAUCCUUGGCCAGGAGGGUGAUGCCAGCUAUCUUGCUUCUGAAAUAUCUACCUGGGAUGGAGUGAUAGUAACACCUUCAGAAAAGGCUUAUGAGAAGCCACCAGAGAAGAAGGAAGGAGAGGAACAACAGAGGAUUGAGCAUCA,0.353 ratio
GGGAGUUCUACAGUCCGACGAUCCAUGAAGAAAGAACAAUUUUGCCUAUGUCAAGAGCUUUCCGUGGUAAACACCUCUCUUUUAUAGUUCGAUUUCCAAACCAGGGCAGGCAAGUAGAUGACUUGGAGGUUUGGUCUCAUACACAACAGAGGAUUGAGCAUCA,0.322 ratio
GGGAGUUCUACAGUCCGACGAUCUUUAUUUUUAUUUUUAUUUUAUUUAUUUAAAAAUCUUGAUCUUUUUUACUUGUUUCAUCACAUAGCUCAGAGUAGGUCCUCAGAAAUUGUUCAUGAUUUUUAAAACAAAGGCCUUGGGCACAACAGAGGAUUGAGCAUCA,4.32 ratio
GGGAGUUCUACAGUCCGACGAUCUUUUCUAAAACUGACAACCAGGUGGGACCAAAGUUUAUGUGCCUUUAGUCUUAAUUUACCUUGCAUUGUAAUAUUCAGUUUUAAUAAAUCUUCAAAAUAUUUUGUAUUUAGGAAUAGAUCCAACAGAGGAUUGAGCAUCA,0.743 ratio

# Set 3
# Cell line: mouse MPNST tumor cells
# Technique: high-content immunofluorescence imaging
# Measured: nuclear SOX9
# Concentration: 10 µM
# Time: 12 h
# Setting: mean of 2 replicates
# Relative to: DMSO control
# Reading: higher = more nuclear SOX9
SMILES,nuclear SOX9 intensity
NCCCCCCCCCCNS(=O)(=O)c1cccc2c(Cl)cccc12,110 % of DMSO
CC(=O)Oc1ccccc1C(=O)Nc1ncc([N+](=O)[O-])s1,111 % of DMSO and 97.5 % of DMSO
COc1cc(Nc2ccnc3ccc(Br)cc23)cc(OC)c1OC,288 % of DMSO
COc1cc(NC(C)CCCN)c2ncccc2c1 (stereo not drawn),133 % of DMSO

# Set 4
# Compound: CCS(=O)(=O)c1cc2cc(C[C@](O)(CC(C)(C)c3ccc(F)cc3C(N)=O)C(F)(F)F)[nH]c2cn1
# Read-out: cell-free assay
# Technique: competition with immobilised ligand
# Concentration: 1 µM
target,remaining binding
"Mast/stem cell growth factor receptor Kit (KIT, Homo sapiens, UniProt P10721)",95%
"Transient receptor potential cation channel subfamily M member 6 (TRPM6, Homo sapiens, UniProt Q9BX84)",86%
"Activin receptor type-2A (ACVR2A, Homo sapiens, UniProt P27037)",100%
"Receptor-type tyrosine-protein kinase FLT3 (FLT3, Homo sapiens, UniProt P36888, R834Q)",100%
"cAMP-dependent protein kinase catalytic subunit PRKX (PRKX, Homo sapiens, UniProt P51817)",100%
"Serine/threonine-protein kinase Nek4 (NEK4, Homo sapiens, UniProt P51957)",85%
"Phosphorylase b kinase gamma catalytic chain, liver/testis isoform (PHKG2, Homo sapiens, UniProt P15735)",100%
"Casein kinase I isoform gamma-1 (CSNK1G1, Homo sapiens, UniProt Q9HCP0)",96%
"Tyrosine-protein kinase Fer (FER, Homo sapiens, UniProt P16591)",96%
"Serine/threonine-protein kinase pim-3 (PIM3, Homo sapiens, UniProt Q86V86)",100%
"LIM domain kinase 1 (LIMK1, Homo sapiens, UniProt P53667)",100%
"Platelet-derived growth factor receptor alpha (PDGFRA, Homo sapiens, UniProt P16234)",82%
"Glycogen synthase kinase-3 beta (GSK3B, Homo sapiens, UniProt P49841)",100%
"Membrane-associated tyrosine- and threonine-specific cdc2-inhibitory kinase (PKMYT1, Homo sapiens, UniProt Q99640)",100%
"Tyrosine-protein kinase ABL1, phosphorylated (ABL1, Homo sapiens, UniProt P00519, M351T)",94%
"Cyclin-dependent kinase 13 (CDK13, Homo sapiens, UniProt Q14004)",100%
"Beta-adrenergic receptor kinase 1 (GRK2, Homo sapiens, UniProt P25098)",84%
"LIM domain kinase 2 (LIMK2, Homo sapiens, UniProt P53671)",100%
"G protein-coupled receptor kinase 3 (GRK3, Homo sapiens, UniProt P35626)",100%
"Cyclin-dependent kinase 4 (CDK4, Homo sapiens, UniProt P11802)",100%

# Set 5
# Technique: PRP chromatography estimate
# Sample: 1,9-decadiene/PBS
# pH: 7.4
SMILES,logD
CC(C)C[C@@H]1NC(=O)[C@H](CC(C)C)NC(=O)[C@@H](C(C)C)NC(=O)[C@H](C(C)C)NC(=O)[C@H](C)NC(=O)[C@@H](CC(C)C)NC(=O)[C@H](C)NC1=O,-1.31
CC(C)C[C@@H]1NC(=O)[C@H](C)NC(=O)[C@H](CC(C)C)NC(=O)[C@@H](CC(C)C)NC(=O)[C@H](CC(C)C)NC(=O)[C@@H](C)NC(=O)[C@H](CCC(=O)N2CCCC2)NC1=O,-1.72
CC(C)C[C@@H]1NC(=O)[C@H](CC(C)C)NC(=O)[C@H](CC(C)C)NC(=O)[C@H](CC(C)C)NC(=O)[C@@H](Cc2cscn2)NC(=O)[C@H](C)NC(=O)[C@H](CCC(=O)N2CCCC2)NC1=O,-1.7
CC(C)C[C@@H]1NC(=O)[C@H](CC(C)C)NC(=O)[C@H](CC(C)C)NC(=O)[C@H](C(C)C)NC(=O)[C@@H](Cc2cscn2)NC(=O)[C@@H](CC(C)C)NC(=O)[C@H](C)NC1=O,-0.208

# Further values, each from its own experiment
Compound,target or system,assay,system,conditions,scale,measurement,value
NC(N)=NC(=O)c1nc(Cl)c(N2CCCCCC2)nc1N,"G-protein coupled receptor 182 (GPR182, Homo sapiens, UniProt O15218)","β-arrestin recruitment, agonist, PRESTO-Tango",,10 µM,relative to: untreated,fold over basal,1.19
Cc1nc(C)c2c(C)c(CNCC(C)(C)N3CCOCC3)sc2n1,,,"mouse, microsomes or S9","2 µM, 0.5 h",,remaining compound,0.39%
